Measurements collected from several papers.
Protocols differ between the studies behind these lines. “And” joins repeats or separate records; there may be more than shown. ± gives the spread as reported.
Chrnd/Chrna1/Chrne: Chrnd/Chrna1/Chrne (Mus musculus, UniProt P02716+P04756+P20782)
UniProt P02716, sequence (whole entry, looked up): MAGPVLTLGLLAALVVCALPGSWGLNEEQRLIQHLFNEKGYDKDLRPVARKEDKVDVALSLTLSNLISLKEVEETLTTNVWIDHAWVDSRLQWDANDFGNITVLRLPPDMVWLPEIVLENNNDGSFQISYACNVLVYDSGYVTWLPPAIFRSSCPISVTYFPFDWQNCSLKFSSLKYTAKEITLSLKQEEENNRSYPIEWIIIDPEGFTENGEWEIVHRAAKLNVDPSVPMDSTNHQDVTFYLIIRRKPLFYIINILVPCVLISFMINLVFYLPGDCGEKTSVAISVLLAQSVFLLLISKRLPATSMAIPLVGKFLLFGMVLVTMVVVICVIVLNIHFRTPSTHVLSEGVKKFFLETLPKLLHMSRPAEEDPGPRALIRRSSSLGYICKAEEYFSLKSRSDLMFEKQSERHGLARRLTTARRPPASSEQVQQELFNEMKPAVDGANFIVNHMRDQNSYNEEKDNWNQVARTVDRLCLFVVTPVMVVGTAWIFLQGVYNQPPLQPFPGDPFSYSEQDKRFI
UniProt P20782, sequence (whole entry, looked up): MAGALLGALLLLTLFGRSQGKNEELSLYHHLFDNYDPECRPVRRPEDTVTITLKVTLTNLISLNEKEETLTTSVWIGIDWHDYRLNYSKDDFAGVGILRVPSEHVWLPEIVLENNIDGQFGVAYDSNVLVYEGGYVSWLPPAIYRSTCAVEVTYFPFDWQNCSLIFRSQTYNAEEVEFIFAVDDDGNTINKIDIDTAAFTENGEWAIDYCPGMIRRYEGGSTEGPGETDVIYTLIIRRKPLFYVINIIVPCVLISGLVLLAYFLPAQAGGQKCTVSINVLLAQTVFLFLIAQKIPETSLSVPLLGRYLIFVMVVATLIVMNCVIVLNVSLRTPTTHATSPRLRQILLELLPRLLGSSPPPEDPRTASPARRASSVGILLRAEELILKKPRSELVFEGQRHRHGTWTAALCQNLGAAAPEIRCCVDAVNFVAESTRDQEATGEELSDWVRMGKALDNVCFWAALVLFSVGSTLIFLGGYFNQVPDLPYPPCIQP
UniProt P04756, sequence (whole entry, looked up): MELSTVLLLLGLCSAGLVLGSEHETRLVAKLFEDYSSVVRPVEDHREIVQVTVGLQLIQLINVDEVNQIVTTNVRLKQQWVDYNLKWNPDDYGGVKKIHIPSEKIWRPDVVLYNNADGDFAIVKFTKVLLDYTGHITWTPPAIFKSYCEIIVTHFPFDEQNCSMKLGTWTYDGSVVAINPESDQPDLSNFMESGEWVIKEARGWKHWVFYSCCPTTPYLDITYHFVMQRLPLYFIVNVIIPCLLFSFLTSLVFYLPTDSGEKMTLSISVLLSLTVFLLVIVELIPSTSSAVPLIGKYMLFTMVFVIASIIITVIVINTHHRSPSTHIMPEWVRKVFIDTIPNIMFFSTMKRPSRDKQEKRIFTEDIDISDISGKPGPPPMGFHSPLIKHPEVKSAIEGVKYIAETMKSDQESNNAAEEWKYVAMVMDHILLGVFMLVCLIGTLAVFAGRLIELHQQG
uncharacterized protein: uncharacterized protein (Anopheles coluzzii, UniProt A0A6E8VQK1)
UniProt Q007T0, sequence (whole entry, looked up): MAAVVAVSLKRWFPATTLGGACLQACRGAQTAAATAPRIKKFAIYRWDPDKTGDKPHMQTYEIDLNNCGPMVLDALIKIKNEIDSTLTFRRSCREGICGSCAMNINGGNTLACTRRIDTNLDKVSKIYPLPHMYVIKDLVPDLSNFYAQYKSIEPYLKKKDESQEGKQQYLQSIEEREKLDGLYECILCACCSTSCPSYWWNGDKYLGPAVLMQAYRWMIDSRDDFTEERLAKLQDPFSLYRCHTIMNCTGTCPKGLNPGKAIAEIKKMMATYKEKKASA
UniProt D0VWV4, sequence (whole entry, looked up): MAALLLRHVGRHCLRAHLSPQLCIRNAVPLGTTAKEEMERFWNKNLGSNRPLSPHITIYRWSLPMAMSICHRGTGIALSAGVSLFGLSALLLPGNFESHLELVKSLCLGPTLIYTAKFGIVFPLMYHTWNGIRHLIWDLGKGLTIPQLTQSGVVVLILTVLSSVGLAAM
UniProt A5GZW8, sequence (whole entry, looked up): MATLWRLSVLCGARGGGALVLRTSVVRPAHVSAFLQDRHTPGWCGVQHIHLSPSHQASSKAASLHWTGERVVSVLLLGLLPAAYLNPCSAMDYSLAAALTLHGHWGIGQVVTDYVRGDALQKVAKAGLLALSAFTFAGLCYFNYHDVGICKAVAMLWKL
UniProt Q96GD4, sequence (whole entry, looked up): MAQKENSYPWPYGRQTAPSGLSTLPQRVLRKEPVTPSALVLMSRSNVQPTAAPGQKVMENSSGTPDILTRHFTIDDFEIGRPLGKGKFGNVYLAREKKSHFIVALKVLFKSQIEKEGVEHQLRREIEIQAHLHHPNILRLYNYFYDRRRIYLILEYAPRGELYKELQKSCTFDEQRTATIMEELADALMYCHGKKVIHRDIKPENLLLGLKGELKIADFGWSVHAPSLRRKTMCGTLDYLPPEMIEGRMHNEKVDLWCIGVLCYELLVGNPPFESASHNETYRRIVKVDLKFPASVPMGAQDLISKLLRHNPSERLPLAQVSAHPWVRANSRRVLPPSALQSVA
UniProt P51956, sequence (whole entry, looked up): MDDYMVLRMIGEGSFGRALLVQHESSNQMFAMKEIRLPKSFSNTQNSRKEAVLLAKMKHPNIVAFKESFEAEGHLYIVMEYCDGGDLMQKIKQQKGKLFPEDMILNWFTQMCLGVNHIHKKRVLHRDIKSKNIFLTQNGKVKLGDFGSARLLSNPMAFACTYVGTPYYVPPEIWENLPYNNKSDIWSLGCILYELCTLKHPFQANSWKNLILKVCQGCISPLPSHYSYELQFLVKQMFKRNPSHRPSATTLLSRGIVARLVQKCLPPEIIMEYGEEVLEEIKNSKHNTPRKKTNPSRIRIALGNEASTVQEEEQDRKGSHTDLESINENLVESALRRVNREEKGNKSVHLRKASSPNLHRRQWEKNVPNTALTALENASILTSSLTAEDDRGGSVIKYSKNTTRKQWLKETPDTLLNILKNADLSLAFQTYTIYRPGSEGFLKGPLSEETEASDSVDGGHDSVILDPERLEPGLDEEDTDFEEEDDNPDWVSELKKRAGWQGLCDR
UniProt P51170, sequence (whole entry, looked up): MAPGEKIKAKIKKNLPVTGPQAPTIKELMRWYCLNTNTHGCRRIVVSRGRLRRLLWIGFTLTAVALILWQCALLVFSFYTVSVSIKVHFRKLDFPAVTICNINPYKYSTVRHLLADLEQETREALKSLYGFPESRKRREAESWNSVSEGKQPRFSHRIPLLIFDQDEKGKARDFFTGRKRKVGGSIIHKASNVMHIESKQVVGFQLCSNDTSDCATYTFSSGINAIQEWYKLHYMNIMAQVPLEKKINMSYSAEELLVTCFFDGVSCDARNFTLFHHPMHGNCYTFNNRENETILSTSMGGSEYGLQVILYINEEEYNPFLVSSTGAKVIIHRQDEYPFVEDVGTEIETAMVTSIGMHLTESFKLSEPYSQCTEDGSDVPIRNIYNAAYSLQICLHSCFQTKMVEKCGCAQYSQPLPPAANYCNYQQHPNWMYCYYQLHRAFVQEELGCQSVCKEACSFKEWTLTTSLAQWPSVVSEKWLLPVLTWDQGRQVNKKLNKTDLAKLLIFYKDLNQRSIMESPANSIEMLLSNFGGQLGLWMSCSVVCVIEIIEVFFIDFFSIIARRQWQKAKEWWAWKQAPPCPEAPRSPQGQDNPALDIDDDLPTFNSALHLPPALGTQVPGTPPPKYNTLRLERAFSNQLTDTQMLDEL
UniProt Q14994, sequence (whole entry, looked up): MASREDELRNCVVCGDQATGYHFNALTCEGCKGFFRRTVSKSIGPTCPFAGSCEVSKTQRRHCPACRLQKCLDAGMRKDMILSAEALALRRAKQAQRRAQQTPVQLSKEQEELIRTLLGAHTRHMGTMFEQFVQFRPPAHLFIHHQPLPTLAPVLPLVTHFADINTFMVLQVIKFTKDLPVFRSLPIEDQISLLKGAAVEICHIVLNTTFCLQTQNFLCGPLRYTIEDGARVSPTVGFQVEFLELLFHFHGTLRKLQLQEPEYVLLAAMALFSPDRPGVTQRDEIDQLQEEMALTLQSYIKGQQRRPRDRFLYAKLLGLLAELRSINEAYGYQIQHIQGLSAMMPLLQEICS
UniProt Q05940, sequence (whole entry, looked up): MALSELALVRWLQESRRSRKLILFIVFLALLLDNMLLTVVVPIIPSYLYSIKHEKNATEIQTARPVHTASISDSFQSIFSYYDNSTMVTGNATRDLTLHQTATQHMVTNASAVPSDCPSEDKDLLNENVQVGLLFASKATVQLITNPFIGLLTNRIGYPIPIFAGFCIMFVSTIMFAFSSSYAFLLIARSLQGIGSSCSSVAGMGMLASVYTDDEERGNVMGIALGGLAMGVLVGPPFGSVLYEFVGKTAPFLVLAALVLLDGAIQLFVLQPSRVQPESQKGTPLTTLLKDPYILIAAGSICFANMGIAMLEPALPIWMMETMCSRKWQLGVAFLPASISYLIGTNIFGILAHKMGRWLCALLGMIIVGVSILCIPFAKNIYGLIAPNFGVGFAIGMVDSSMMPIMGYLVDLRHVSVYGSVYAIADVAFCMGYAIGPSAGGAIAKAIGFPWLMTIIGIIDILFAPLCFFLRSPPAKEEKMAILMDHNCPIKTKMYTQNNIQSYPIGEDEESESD
UniProt Q99640, sequence (whole entry, looked up): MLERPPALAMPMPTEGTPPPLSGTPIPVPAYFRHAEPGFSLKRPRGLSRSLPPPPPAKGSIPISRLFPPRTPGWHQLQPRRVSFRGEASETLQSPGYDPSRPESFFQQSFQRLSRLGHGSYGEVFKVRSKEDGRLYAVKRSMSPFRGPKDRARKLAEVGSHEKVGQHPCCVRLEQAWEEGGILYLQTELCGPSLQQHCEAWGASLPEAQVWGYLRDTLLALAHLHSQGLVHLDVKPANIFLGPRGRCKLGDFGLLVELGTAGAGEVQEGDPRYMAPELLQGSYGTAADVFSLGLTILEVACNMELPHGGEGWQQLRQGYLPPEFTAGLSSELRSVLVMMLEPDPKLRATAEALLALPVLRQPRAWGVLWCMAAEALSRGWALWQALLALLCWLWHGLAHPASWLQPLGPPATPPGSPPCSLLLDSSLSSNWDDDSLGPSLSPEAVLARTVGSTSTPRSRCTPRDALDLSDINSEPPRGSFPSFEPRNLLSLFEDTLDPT

C=C(CN(C(=O)c1c(C(F)F)nn(C)c1F)C1CC1)c1ccc(Cl)cc1Cl  reaction velocity (SDHD/SDHC/SDHB (Sus scrofa, UniProt A5GZW8+D0VWV4+Q007T0); enzyme activity, inhibitor, DCIP reduction; pig; 0.2 µM, with: DCIP 190 µM): 0.0261 µM/s and 0.0278 µM/s and 0.0273 µM/s
Nc1ncc(-c2nc(N3CCOCC3)nc(N3CCOCC3)n2)c(C(F)F)n1  remaining binding (Serine/threonine-protein kinase Nek3 (NEK3, Homo sapiens, UniProt P51956); KINOMEscan; 10 µM): 78%
c1cncc([C@@H]2CCCCN2)c1  resting-state koff (Chrnd/Chrna1/Chrne; single-channel kinetics; wild-type receptor): 7460 s⁻¹
C[C@H]1CN(c2n[nH]c3nc(N[C@H]4CC[C@H](NS(=O)(=O)CCC(F)(F)F)CC4)ncc23)CCO1  remaining binding (Stalled ribosome sensor GCN1 (Homo sapiens, UniProt Q92616); Kinobeads competition, refers to: GCN1L1; 0.032 µM, unit not given; reference: vehicle): 0.91
CCCCCCCCCCCCCC[N+](C)(C)C  relative binding affinity (Sodium channel protein type 4 alpha, BTX-activated (Oryctolagus cuniculus, UniProt G1SLL9); concentration not given, external application; reference: internal application): < 1%
Nc1ncnc2c1ncn2[C@H]1C[C@H](O)[C@@H](COP(=O)(O)OP(=O)(O)OP(=O)(O)O)O1  Km (Gag-Pol polyprotein, reverse transcriptase (gag-pol, Human immunodeficiency virus type 1 group M subtype B, UniProt P04585); single nucleotide extension, substrate; wild type, G:A mismatched primer/template): 117 ± 60.1 µM
O=C(Nc1cnccc1Cl)N1CCN(Cc2ccc3c(c2)OC(F)(F)O3)CC1  inhibition (MAP kinase-activated protein kinase 5 (MAPKAPK5, Homo sapiens, UniProt Q8IW41); kinase activity, inhibitor; 10 µM, with: PRAK peptide substrate): -11%
O=c1c2ccccc2oc2cc(OCCCCc3ccccc3)ccc12  reaction velocity (Acetylcholinesterase (ache, Electrophorus electricus, UniProt O42275); enzyme activity; 2.91 µM, with: substrate 0.86 mM; higher = faster reaction): 0.0008 a.u.
c1cc(N2CCNCC2)c2cc[nH]c2c1  Emax (Muscarinic acetylcholine receptor M1 (CHRM1, Homo sapiens, UniProt P11229); ERK1/2 phosphorylation, agonist; CHO cells): < 10%
COc1cc(Nc2ncc(F)c(Nc3ccc4c(n3)NC(=O)C(C)(C)O4)n2)cc(OC)c1OC  inhibition (Membrane-associated tyrosine- and threonine-specific cdc2-inhibitory kinase (PKMYT1, Homo sapiens, UniProt Q99640); KINOMEscan; 10 µM): 30%
c1ccc2c(c1)cc1ccc3cccc4ccc2c1c34  agonist response (Aryl hydrocarbon receptor (Ahr, Rattus norvegicus, UniProt P41738); agonist, CALUX reporter; H4IIE; 0.000126 µg/mL): 27.9%
O=C(c1ccc(Cl)cc1)N1CCN2C(=O)N(OC(=O)N3CCOc4ccccc43)C(=O)C2C1 (stereo not drawn)  median ratio (Dipeptidyl peptidase 2 (Homo sapiens, UniProt Q9UHL4); enzyme activity, inhibitor, MS-based ABPP; SW-620 conditioned medium; 10 µM, 1 h, 37 °C; reference: compound over DMSO, lower = stronger inhibition): 1.15
CNC(=O)Oc1cccc2c1OC(C)(C)O2  remaining activity (uncharacterized protein; enzyme activity, inhibitor; Sf9 cell homogenate; 0.04651 µM, 0.1667 h, with: α-naphthyl acetate substrate; reference: no inhibitor): 98.4%
[2H]c1c([2H])c([C@]2([2H])CCCN2C(=O)C(C)(C)Oc2ccc3cn[nH]c3c2)c([2H])c([2H])c1C([2H])([2H])[2H]  remaining binding (Fibroblast growth factor receptor 4 (FGFR4, Homo sapiens, UniProt P22455); KINOMEscan; 1 µM; reference: DMSO control): 73%
CCOC(=O)CC(SP(=O)(OC)OC)C(=O)OCC (stereo not drawn)  remaining activity (uncharacterized protein; enzyme activity, inhibitor; Sf9 cell homogenate; 0.344 µM, 0.1667 h, with: α-naphthyl acetate substrate; reference: no inhibitor): 33.9%
CN(C)CCNc1nc2cc(O)ccc2c2c1C(=O)c1ccccc1-2.Cl.Cl  RLuc luminescence (Protein transport protein Sec61 subunit alpha isoform 1 (Homo sapiens, UniProt P61619); reporter gene, Dual-Glo luciferase; HEK293 with CD4 signal peptide-FLuc; unit not given; reference: mock): 0.413
CC(C)[C@@H]1NC(=O)[C@H](C)OC(=O)[C@@H](C(C)C)NC(=O)[C@@H](C(C)C)OC(=O)[C@H](C(C)C)NC(=O)[C@H](C)OC(=O)[C@@H](C(C)C)NC(=O)[C@@H](C(C)C)OC(=O)[C@H](C(C)C)NC(=O)[C@H](C)OC(=O)[C@@H](C(C)C)NC(=O)[C@@H](C(C)C)OC1=O  Luke-S1 reporter signal (Metalloendopeptidase OMA1, mitochondrial (OMA1, Homo sapiens, UniProt Q96E52); protease activity; concentration not given, 15 min; reference: untreated cells): ~40%
O=C(O)c1cccc(C(=O)O)n1  koff (Metallo-beta-lactamase type 2 (blaNDM-1, Klebsiella pneumoniae, UniProt C7C422); enzyme activity, inhibitor; with: nitrocefin): 0.00433 ± 0.000333 s⁻¹
O=P(O)(O)OC[C@H]1C[C@](O)(CO)[C@@H](O)[C@H](O)[C@@H]1O  apparent Vmax (valA (Streptomyces hygroscopicus, UniProt H2K887); phosphate release; 100 µM): 2.3 ± 0.3 µM/min
CC[C@H](C)[C@H](NC(=O)CNC(=O)[C@@H](N)CCCCN)C(=O)N[C@@H](CC(C)C)C(=O)N[C@@H](CCCCN)C(=O)N[C@@H](CCCNC(=N)N)C(=O)N[C@@H](CCC(=O)O)C(=O)N[C@@H](CCCCN)C(=O)N[C@@H](CCCNC(=N)N)C(=O)N[C@@H](CC(C)C)C(=O)N[C@@H](CCCNC(=N)N)C(=O)N[C@@H](CCCNC(=N)N)C(=O)N[C@@H](CCCCN)C(=O)N[C@@H](CC(N)=O)C(=O)N[C@H](C(=O)N[C@@H](Cc1c[nH]cn1)C(=O)N[C@@H](Cc1c[nH]c2ccccc12)C(=O)N1CCC[C@H]1C(=O)N[C@@H](CCC(=O)O)C(=O)N[C@@H](CCC(=O)O)C(=O)NCC(=O)N[C@@H](CCCCN)C(=O)N[C@@H](CC(C)C)C(=O)N[C@@H](CCCNC(=N)N)C(=O)N[C@@H](CCC(=O)O)C(=O)N[C@@H](Cc1ccc(O)cc1)C(=O)N[C@@H](Cc1ccccc1)C(=O)N[C@@H](Cc1ccc(O)cc1)C(=O)N[C@@H](Cc1ccccc1)C(=O)N[C@@H](CCC(=O)O)C(=O)N[C@@H](CC(C)C)C(=O)N[C@@H](CC(=O)O)C(=O)N[C@@H](CCC(=O)O)C(=O)N[C@@H](C)C(=O)N[C@@H](CCC(=O)O)C(=O)N[C@@H](CCCNC(=N)N)C(=O)N[C@H](C(=O)N[C@@H](CC(N)=O)C(=O)N[C@H](C(=O)O)C(C)C)C(C)C)C(C)C  ΔG of binding (Serine/threonine-protein phosphatase PP1-alpha catalytic subunit (PPP1CA, Homo sapiens, UniProt P62136); ITC; concentration not given, 25 °C, PP1α 7-330): -11.5 ± 0.1 kcal/mol
C[n+]1ccc(-c2ccccc2)cc1  reserpine-sensitive uptake (Synaptic vesicular amine transporter (SLC18A2, Homo sapiens, UniProt Q05940); substrate, [3H] uptake; HEK293 expressing VMAT2, isolated vesicles): 1390 fmol/µg protein
C[C@@H](O)[C@H](NC(=O)c1ccc(C#Cc2ccccc2)cc1)C(=O)NO  ΔS of binding (UDP-3-O-acyl-N-acetylglucosamine deacetylase (Pseudomonas aeruginosa, UniProt P47205, C40S); ITC; concentration not given, 298 K): 0.0715 kJ/(mol·K)
Cc1nn(C)cc1-c1nc2c(N3CCN(Cc4ccc(Cl)cc4)CC3)c(Cl)cnc2[nH]1  remaining binding (Proto-oncogene tyrosine-protein kinase receptor Ret (RET, Homo sapiens, UniProt P07949, M918T); KINOMEscan; 1 µM; reference: DMSO control): 2%
COc1ccc(N2C(=O)N(c3c(C)cccc3Cl)Cc3cnc(Nc4ccc(C5CCN(C)CC5)cc4OC)nc32)nc1  inhibition (Aurora kinase B (AURKB, Homo sapiens, UniProt Q96GD4); kinase activity, inhibitor; 0.5 µM, kinase AURORA-B): 9%
C[N+](C)(C)CCOC(N)=O  endplate depolarization response (Chrnd/Chrna1/Chrne; mouse end plates; 10 µM, unit not given; reference: control): 0.132
O=C(O)COP(=O)(O)O  Ki ratio (TPI1 (Saccharomyces cerevisiae, UniProt P00942, Y208F); enzyme activity, competitive inhibitor, GPDH/NADH-coupled; pH 9.3, 25 °C, ionic strength 0.1 NaCl, with: glyceraldehyde 3-phosphate substrate; reference: mutant over wild type): 12
CC(C)C[C@H](NC(=O)[C@H](Cc1ccccc1)NC(=O)[C@@H]1CCCN1C(=O)[C@H](CCCNC(=N)N)NC(=O)[C@H](CCC(=O)O)NC(=O)[C@@H]1CCCN1C(=O)[C@H](CO)NC(=O)[C@@H](N)CCC(=O)O)C(=O)O  koff (Epithelial sodium channel subunit gamma (Homo sapiens, UniProt P51170); binding, bio-layer interferometry): 0.0223 s⁻¹
CN(C(=O)n1cnc(-c2ccc[n+]([O-])c2)c1)C1CCCCC1  inhibition (Alpha-1A adrenergic receptor (Adra1a, Rattus norvegicus, UniProt P43140); radioligand binding; 50 µM, with: [3H]prazosin): 9%
N[C@@H](Cc1ccc(O)c(I)c1)C(=O)O  affinity decrease (Iodotyrosine deiodinase (Haliscomenobacter hydrossis, UniProt F4KU78, R38K); reference: wild type over mutant): > 10 fold
CO[C@H]1C[C@H](O[C@H]2[C@H](C)O[C@@H](O[C@@H]3/C(C)=C/C[C@@H]4C[C@@H](C[C@]5(C=C[C@H](C)[C@@H](C6CCCCC6)O5)O4)OC(=O)[C@@H]4C=C(C)[C@@H](O)[C@H]5OC/C(=C\C=C\[C@@H]3C)[C@]54O)C[C@@H]2OC)O[C@@H](C)[C@@H]1O  activity (Nuclear receptor subfamily 1 group I member 3 (Homo sapiens, UniProt Q14994); cells; concentration not given): inactive
O=C(Nc1cccnn1)N1CCC(=Cc2cccc(Oc3ccc(C(F)(F)F)cn3)c2)CC1  inhibition (central imidazoline I2 receptor, rat; binding; 50 µM, with: [3H]idazoxan): 37%
C=CCn1cc(-c2ccc(-c3ccn(CCC(C)(C(=O)NO)S(C)(=O)=O)c(=O)c3)cc2)nn1 (stereo not drawn)  residence time (UDP-3-O-acyl-N-acetylglucosamine deacetylase (Pseudomonas aeruginosa, UniProt P47205); fluorescence; 37 °C): 82.8 ± 26 min
CN1CCN(c2cc(-c3ccncc3)c(-c3ccc4ccccc4c3)nn2)CC1  inhibition (Sphingosine 1-phosphate receptor 4 (S1PR4, Homo sapiens, UniProt O95977); antagonist, FLIPR; 10 µM): -6.7%
